Results of several laboratories.
Each line is one published result; not all experiments were run side by side. Values joined by “and” are separate records of one study, mostly repeats; a detail may differ. ± marks the error that the study gave. Bridges are numbered along the chain shown (N, C = ends). Where no end group is shown, it is not given here.

Substance	test	system	setting	how to read	endpoint	result
[123I]c1cncc(OC[C@@H]2CCN2)c1	SPECT	human, pons	intravenous bolus, 7.35 mCi	relative to: plasma	tissue/plasma ratio	45.5
CN[C@@](C)(C[18F])C(=O)O	–	SCID mouse MDA-MB-468 xenograft, brain	30 min, post injection	–	tissue uptake	0.3 ± 0.04 %ID/g
CC[C@H](C)[C@H](NC(=O)[C@@H](N)CCCNC(=N)N)C(=O)N[C@H](C(=O)N1CCC[C@H]1C(=O)N[C@@H](C)C(N)=O)C(C)C	–	human, plasma	intravenous, 5 mg/kg, single dose, healthy volunteers	–	AUC(0-t)	1150 ng·h/mL
O=c1[nH]c(Cc2ccccn2)nc2c1cnn2C1CCOCC1	–	healthy men, extensive metabolizers, plasma	oral, 10 mg single dose, tablet, geometric mean	–	half-life	62.4 min
COc1ccc(C[C@@H]2NC(=O)[C@H]([C@@H](C)O)NC(=O)[C@@H]3[C@@H]4CCN3C(=O)[C@@H]3Cc5cn(c6ccc(F)cc56)CCCCCCN(Cc5ccc(cc5)CCNC(=O)[C@]5(C)CCCN5C2=O)C(=O)CCC(=O)N[C@@H](C)C(=O)N[C@H](CNC(=O)CCCCC[N+](C)(C)C)C(=O)N[C@@H](Cc2cccc(c2)CNC(=O)CO4)C(=O)N3)cc1	–	fasted healthy men, plasma	oral, 100 mg single dose, 24 h, with 1800 mg Labrasol, median	–	plasma concentration	8.47 nM
GKWHCTTKFPHHYCLYG (disulfide 5-14 (inferred)) (cyclic, disulfide)	–	male nontransgenic mice, blood	intravenous, 0.5 mg/kg, sulfo-Cy5.5 labelled	–	blood half-life	~10 min and 10.1 min
CC(C)Nc1nc(Cl)nc(NC(C)C)n1	LC-MS/MS	herbicide solution	2 h, 23 °C, added: 254 nm UV exposure	–	remaining amount	15.5 ± 5.07%
NCCc1c[nH]c2ccccc12	–	human liver mitochondrial preparation	1 µM, 30 min, 0.5 mg/mL protein	–	percent metabolized	> 100%
[Cl][Mn][Cl]	cytochrome c release, ELISA	mouse liver mitochondria	30 min	relative to: maximal release by alamethicin	EC20	> 800 µM
CCCCCOc1ccc(-c2cc(-c3ccc(C(=O)N[C@H]4C[C@@H](O)[C@@H](O)NC(=O)[C@@H]5[C@@H](O)[C@@H](C)CN5C(=O)[C@H]([C@H](O)CC(N)=O)NC(=O)[C@H]([C@H](O)[C@@H](O)c5ccc(O)c(OS(=O)(=O)O)c5)NC(=O)[C@@H]5C[C@@H](O)CN5C(=O)[C@H]([C@@H](C)O)NC4=O)cc3)no2)cc1	–	young infants at least 1000 g, plasma	intravenous infusion, 7 mg/kg/day, day 4, median, 1 h infusion, repeat dosing	–	half-life	678 min

Excerpt of the above:
Substance	test	system	setting	how to read	endpoint	result
CCCCCOc1ccc(-c2cc(-c3ccc(C(=O)N[C@H]4C[C@@H](O)[C@@H](O)NC(=O)[C@@H]5[C@@H](O)[C@@H](C)CN5C(=O)[C@H]([C@H](O)CC(N)=O)NC(=O)[C@H]([C@H](O)[C@@H](O)c5ccc(O)c(OS(=O)(=O)O)c5)NC(=O)[C@@H]5C[C@@H](O)CN5C(=O)[C@H]([C@@H](C)O)NC4=O)cc3)no2)cc1	–	young infants at least 1000 g, plasma	intravenous infusion, 7 mg/kg/day, day 4, median, 1 h infusion, repeat dosing	–	half-life	678 min
